Measured values gathered from unrelated publications.
Parts stem from different laboratories: compare values within a part only.
Sequence of UniProt P11802 (whole entry, looked up): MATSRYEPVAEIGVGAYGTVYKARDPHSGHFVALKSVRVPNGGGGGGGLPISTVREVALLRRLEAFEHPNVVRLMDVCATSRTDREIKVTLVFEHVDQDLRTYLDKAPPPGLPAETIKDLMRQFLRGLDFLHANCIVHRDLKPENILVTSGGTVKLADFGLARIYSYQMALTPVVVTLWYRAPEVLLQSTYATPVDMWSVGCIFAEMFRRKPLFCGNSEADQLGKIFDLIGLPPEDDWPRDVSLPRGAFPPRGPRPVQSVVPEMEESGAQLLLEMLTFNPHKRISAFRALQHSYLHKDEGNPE
Sequence of UniProt P30291 (whole entry, looked up): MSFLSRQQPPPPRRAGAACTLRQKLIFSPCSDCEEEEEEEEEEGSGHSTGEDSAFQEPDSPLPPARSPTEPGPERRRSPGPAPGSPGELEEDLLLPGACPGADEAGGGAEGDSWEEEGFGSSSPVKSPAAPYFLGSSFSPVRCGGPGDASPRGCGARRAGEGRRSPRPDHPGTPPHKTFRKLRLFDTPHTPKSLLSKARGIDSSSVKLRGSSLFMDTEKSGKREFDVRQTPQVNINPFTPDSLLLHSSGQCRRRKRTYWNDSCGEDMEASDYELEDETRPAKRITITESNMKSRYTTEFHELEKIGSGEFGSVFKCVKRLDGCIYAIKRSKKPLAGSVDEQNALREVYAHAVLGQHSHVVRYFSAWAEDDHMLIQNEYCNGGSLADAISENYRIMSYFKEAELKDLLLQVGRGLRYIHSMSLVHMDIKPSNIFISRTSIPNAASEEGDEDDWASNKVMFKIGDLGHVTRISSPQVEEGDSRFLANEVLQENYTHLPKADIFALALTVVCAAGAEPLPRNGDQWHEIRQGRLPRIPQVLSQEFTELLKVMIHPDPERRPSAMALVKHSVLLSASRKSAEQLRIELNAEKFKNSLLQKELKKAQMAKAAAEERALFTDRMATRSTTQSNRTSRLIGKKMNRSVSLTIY
Sequence of UniProt Q02763 (whole entry, looked up): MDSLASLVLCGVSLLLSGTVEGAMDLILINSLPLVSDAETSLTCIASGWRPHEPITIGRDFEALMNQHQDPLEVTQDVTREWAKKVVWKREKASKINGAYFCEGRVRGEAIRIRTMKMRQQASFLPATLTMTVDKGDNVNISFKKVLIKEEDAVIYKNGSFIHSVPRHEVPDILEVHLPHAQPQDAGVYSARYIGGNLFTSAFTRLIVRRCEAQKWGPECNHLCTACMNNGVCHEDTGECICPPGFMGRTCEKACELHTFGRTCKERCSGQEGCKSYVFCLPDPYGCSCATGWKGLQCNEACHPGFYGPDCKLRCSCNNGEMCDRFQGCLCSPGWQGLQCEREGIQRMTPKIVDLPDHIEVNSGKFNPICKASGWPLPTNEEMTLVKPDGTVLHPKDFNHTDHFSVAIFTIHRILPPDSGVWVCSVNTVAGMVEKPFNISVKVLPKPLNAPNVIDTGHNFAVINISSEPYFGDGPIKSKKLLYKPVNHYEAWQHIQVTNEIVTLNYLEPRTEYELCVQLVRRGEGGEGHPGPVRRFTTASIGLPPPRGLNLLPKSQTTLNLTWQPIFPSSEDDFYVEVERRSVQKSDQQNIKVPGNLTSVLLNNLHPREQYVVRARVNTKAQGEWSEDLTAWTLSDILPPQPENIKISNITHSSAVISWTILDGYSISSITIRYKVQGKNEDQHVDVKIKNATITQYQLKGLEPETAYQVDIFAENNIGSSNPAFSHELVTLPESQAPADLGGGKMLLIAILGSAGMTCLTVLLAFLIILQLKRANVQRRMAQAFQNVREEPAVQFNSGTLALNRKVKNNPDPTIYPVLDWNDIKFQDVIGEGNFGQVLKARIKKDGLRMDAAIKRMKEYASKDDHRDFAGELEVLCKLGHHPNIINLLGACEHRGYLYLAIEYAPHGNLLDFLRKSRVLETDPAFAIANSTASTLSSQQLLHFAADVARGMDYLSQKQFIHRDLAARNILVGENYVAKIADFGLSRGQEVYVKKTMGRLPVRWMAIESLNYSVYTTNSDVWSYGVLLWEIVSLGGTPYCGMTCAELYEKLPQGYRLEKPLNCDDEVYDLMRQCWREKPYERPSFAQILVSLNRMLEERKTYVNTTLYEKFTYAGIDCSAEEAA
Sequence of UniProt P06493 (whole entry, looked up): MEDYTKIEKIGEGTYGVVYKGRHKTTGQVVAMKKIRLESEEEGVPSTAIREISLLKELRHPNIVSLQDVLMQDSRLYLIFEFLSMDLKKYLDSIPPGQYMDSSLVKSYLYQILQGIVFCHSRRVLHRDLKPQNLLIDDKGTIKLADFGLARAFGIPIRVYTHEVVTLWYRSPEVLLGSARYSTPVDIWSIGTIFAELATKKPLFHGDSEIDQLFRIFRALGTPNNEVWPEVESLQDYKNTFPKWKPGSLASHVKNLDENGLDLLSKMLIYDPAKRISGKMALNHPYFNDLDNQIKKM
Sequence of UniProt Q13131 (whole entry, looked up): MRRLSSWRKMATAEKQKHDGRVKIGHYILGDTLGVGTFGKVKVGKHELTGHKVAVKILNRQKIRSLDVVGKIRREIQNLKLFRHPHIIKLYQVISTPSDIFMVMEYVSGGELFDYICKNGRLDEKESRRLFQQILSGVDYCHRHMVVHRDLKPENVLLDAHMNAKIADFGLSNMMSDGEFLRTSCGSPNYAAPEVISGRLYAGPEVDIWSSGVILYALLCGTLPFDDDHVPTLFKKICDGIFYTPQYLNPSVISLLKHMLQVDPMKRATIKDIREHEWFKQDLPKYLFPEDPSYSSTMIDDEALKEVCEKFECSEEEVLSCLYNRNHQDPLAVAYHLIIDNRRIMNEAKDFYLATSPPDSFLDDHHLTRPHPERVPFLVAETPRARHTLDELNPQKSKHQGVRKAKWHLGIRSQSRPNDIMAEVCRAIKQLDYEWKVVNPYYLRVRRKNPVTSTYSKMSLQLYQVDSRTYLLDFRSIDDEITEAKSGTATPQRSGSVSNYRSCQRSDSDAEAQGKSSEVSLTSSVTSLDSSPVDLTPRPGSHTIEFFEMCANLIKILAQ
Sequence of UniProt P08581 (whole entry, looked up): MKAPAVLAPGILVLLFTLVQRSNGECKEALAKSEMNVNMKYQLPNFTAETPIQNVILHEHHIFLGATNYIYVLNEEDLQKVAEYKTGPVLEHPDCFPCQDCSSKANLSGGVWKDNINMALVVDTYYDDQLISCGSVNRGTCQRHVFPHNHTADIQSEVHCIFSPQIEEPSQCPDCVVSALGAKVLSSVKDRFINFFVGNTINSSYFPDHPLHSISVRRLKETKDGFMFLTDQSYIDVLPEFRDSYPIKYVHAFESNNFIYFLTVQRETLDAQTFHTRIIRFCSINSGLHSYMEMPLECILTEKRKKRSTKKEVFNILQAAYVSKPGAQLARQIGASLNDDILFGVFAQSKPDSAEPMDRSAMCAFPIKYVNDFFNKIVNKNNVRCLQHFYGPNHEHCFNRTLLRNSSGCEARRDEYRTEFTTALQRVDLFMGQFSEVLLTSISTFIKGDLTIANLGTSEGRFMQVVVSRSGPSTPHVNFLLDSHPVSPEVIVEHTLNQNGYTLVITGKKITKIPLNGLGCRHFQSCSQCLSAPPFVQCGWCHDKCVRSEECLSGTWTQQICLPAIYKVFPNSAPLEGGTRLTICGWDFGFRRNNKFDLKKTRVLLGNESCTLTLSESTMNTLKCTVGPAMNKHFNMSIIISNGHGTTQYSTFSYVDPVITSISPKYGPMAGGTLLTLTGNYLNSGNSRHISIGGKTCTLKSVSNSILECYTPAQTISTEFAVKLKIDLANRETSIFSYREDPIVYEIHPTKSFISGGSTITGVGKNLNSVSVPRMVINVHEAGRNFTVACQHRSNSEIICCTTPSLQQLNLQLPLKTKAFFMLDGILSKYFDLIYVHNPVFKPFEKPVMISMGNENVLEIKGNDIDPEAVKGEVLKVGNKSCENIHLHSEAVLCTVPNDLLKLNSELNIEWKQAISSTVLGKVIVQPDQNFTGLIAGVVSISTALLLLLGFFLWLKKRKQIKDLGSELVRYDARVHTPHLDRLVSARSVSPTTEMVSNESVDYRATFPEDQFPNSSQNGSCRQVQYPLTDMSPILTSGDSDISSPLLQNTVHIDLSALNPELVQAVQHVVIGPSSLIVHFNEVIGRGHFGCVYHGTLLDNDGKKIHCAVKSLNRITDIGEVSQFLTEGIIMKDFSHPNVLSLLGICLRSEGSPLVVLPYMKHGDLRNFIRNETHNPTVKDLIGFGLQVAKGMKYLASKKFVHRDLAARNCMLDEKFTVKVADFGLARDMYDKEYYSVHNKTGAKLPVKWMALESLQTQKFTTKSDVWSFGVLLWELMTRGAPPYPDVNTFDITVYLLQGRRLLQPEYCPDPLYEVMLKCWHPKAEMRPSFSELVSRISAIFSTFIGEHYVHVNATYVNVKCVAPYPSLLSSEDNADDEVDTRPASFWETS

Series 1 — concentration: 1 µM
SMILES: CCCCN(CCCC)C(=O)CN1C[C@H](c2cc(OC)c3c(c2)OCO3)[C@@H](C(=O)O)[C@@H]1CC(C)(C)CCC
Cyclin-dependent kinase 4, with cyclin D3 (CDK4, Homo sapiens, UniProt P11802); cell-free assay, competition with immobilised ligand — remaining binding: 100%.
CSNK1D (Homo sapiens, UniProt P48730); cell-free assay, competition with immobilised ligand — remaining binding: 100%.
For FGFR2 (Homo sapiens, UniProt P21802); cell-free assay, competition with immobilised ligand: remaining binding read 100%.
EPHA1 (Homo sapiens, UniProt P21709); cell-free assay, competition with immobilised ligand — remaining binding: 92.6%.
ACVR1 (Homo sapiens, UniProt Q04771); cell-free assay, competition with immobilised ligand — remaining binding: 100%.
It gave 75% for remaining binding (Ribosomal protein S6 kinase alpha-4, C-terminal kinase domain (RPS6KA4, Homo sapiens, UniProt O75676); cell-free assay, competition with immobilised ligand).
The remaining binding was 100% (MET (Homo sapiens, UniProt P08581); cell-free assay, competition with immobilised ligand).
MAP2K4 (Homo sapiens, UniProt P45985); cell-free assay, competition with immobilised ligand — remaining binding: 74.4%.
TEK (Homo sapiens, UniProt Q02763); cell-free assay, competition with immobilised ligand — remaining binding: 90.5%.
It gave 95.4% for remaining binding (WEE1 (Homo sapiens, UniProt P30291); cell-free assay, competition with immobilised ligand).
PAK1 (Homo sapiens, UniProt Q13153); cell-free assay, competition with immobilised ligand — remaining binding: 100%.
It gave 71.9% for remaining binding (GRK1 (Homo sapiens, UniProt Q15835); cell-free assay, competition with immobilised ligand).
It gave 100% for remaining binding (PRKAA1 (Homo sapiens, UniProt Q13131); cell-free assay, competition with immobilised ligand).
It gave 100% for remaining binding (ROS1 (Homo sapiens, UniProt P08922); cell-free assay, competition with immobilised ligand).
The remaining binding was 72.5% (Tyrosine-protein kinase ABL1, phosphorylated (ABL1, Homo sapiens, UniProt P00519, F317I); binding).

Series 2 — observed: enzyme activity; action: inhibitor; concentration: 10 µM
Target: Calcium/calmodulin-dependent protein kinase type II subunit alpha (CAMK2A, Homo sapiens, UniProt Q9UQM7)
Sequence of UniProt Q9UQM7 (whole entry, looked up): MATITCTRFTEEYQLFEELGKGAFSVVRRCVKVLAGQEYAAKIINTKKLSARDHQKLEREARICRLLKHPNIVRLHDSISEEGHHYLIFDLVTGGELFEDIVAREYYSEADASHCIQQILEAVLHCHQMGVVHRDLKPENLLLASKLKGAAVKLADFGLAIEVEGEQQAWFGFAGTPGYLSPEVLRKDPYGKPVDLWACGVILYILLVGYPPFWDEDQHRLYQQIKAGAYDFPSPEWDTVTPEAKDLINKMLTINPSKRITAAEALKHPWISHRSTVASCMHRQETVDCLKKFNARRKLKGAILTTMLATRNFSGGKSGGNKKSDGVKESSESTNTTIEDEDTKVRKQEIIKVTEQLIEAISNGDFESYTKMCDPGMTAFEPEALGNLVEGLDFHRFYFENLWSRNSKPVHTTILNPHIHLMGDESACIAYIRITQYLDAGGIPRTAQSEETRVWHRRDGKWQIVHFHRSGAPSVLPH
The inhibition of CCOC(=O)CN[C@@H](C(=O)N1CC[C@H]1C(=O)NCc1ccc(/C(N)=N/O)cc1)C1CCCCC1 is reported as -12%.
For C[C@@H](c1nc(-c2ccc(C#N)cc2)cs1)[C@](O)(Cn1cncn1)c1cc(F)ccc1F, the inhibition was 9%.
With CC(=O)[C@H]1CC[C@H]2[C@@H]3C=CC4=CC(=O)CC[C@@]4(C)[C@@H]3CC[C@]12C the inhibition was -3%.
With Nc1ccc(/N=N/c2ccccc2)c(N)n1 the inhibition was 2%.
CC/C=C/CC1C(=O)CCC1CC(=O)OC (centres unmarked) has an inhibition of -8%.
For C=C1C(=O)O[C@@H]2C[C@@]3(C)CCCC(=C)[C@@H]3C[C@H]12, the inhibition was -5%.
For O=C(O)[C@@H]1CCCCN1, the inhibition was 22%.
The inhibition of COC(=O)C1=C(C)NC(C)=C(C(=O)OC(C)(C)CN(C)CCC(c2ccccc2)c2ccccc2)C1c1cccc([N+](=O)[O-])c1 (centres unmarked) is reported as -13%.

Series 3 — observed: enzyme activity; action: inhibitor; concentration: 0.5 µM; reference: control
SMILES: COc1cc2c(Nc3ccc(Br)cc3F)ncnc2cc1OCC1CCN(C)CC1
It gave 101% for remaining activity (STK16 (Homo sapiens, UniProt O75716)).
It gave 100% for remaining activity (HIPK4 (Homo sapiens, UniProt Q8NE63)).
It gave 98% for remaining activity (WNK3 (Homo sapiens, UniProt Q9BYP7)).
It gave 101% for remaining activity (RPS6KA5 (Homo sapiens, UniProt O75582)).
For CAMK2B (Homo sapiens, UniProt Q13554): remaining activity read 98.2%.
HIPK2 (Homo sapiens, UniProt Q9H2X6) — remaining activity: 99.4%.
The remaining activity was 55.5% (PHKG1 (Homo sapiens, UniProt Q16816)).
It gave 96% for remaining activity (DYRK3 (Homo sapiens, UniProt O43781)).
It gave 101% for remaining activity (Cyclin-dependent kinase 4, with cyclin D3 (CDK4, Homo sapiens, UniProt P11802)).
For EPHB1 (Homo sapiens, UniProt P54762): remaining activity read 27.8%.
BLK (Homo sapiens, UniProt P51451) — remaining activity: 33.8%.
For PRKACG (Homo sapiens, UniProt P22612): remaining activity read 106%.
It gave 98.8% for remaining activity (SRMS (Homo sapiens, UniProt Q9H3Y6)).
TSSK2 (Homo sapiens, UniProt Q96PF2) — remaining activity: 95.9%.
It gave 92.4% for remaining activity (STK17A (Homo sapiens, UniProt Q9UEE5)).
For PDPK1 (Homo sapiens, UniProt O15530): remaining activity read 91.3%.
For RPS6KA6 (Homo sapiens, UniProt Q9UK32): remaining activity read 99.3%.
The remaining activity was 98.5% (MAPKAPK3 (Homo sapiens, UniProt Q16644)).
It gave 102% for remaining activity (Cyclin-dependent kinase 1, with cyclin B (CDK1, Homo sapiens, UniProt P06493)).
It gave 79.8% for remaining activity (MAP4K4 (Homo sapiens, UniProt O95819)).

Series 4 — organism: Toxoplasma gondii; observed: parasite growth; technique: drug-repurposing HTS, FLUC reporter; concentration: concentration not given
C[C@H]1[C@H](OC(=O)CCC(=O)O)O[C@@H]2O[C@@]3(C)CC[C@H]4[C@H](C)CC[C@@H]1[C@@]24OO3 — result for activity: “active”.
Cl.O=C1[C@H]2CCCC[C@H]2C(=O)N1CCCCN1CCN(c2nsc3ccccc23)CC1 — result for activity: “inactive”.
OCCN1CCN(CCCN2c3ccccc3Sc3ccc(Cl)cc32)CC1 — result for activity: “active”.
Oc1c(Cl)cc(Cl)c2cccnc12: activity “inactive”.
For CN1CCCC(n2nc(Cc3ccc(Cl)cc3)c3ccccc3c2=O)CC1 (centres unmarked), activity read “inactive”.
O=c1c(-c2ccccc2)c1-c1ccccc1 — result for activity: “inactive”.
CCN(CC)C(=S)SSC(=S)N(CC)CC — result for activity: “inactive”.

For quick reference, copied from above (series 3):
It gave 79.8% for remaining activity (MAP4K4 (Homo sapiens, UniProt O95819)).
The remaining activity was 98.5% (MAPKAPK3 (Homo sapiens, UniProt Q16644)).
For CAMK2B (Homo sapiens, UniProt Q13554): remaining activity read 98.2%.
